# Published values of several laboratories.
# Numbered parts are unrelated; each lists some results of a single study.

# Sample 1
# Target: human cyclin B2
# Observed: peptide binding
# Technique: yeast competitive growth sequencing
# Form: peptide
# Organism: Saccharomyces cerevisiae
# Strain: cyclin B2-Cln2 fusion
# Concentration: concentration not given
# Notes: peptide tiling library
# Reading: direction not given
Molecule,binding enrichment score
VSRNLRSSLKSSLHTL,0.065
PFSENVSAVQKLDFSD,0.361
VKTKKRLNFDDK,0.132
PKRAKRKLYTSEISSP,0.282
ISRLFPPRTPGWHQLQ,1.18
NRLLKLFTRCLTPLVP,-0.828
RQVRRDLFAF,-0.156
LKGRRLVFDN,0.501
KVKRRLDLDIDGLQKE,1.22
YLYLLLTQSLWCRV,0.261

# Sample 2
# Target: Histone acetyltransferase KAT6A, winged helix 1, GST fusion (KAT6A, Homo sapiens, UniProt Q92794, residues 1-85)
# Technique: protein binding microarray
# Form: double-stranded DNA, one strand shown
# Sample: in vitro
# Concentration: not given
# Notes: 8-mer, flanks averaged, mean of 2 arrays, mostly near background
# Relative to: not given
# Reading: higher = stronger binding
# Residues (chain): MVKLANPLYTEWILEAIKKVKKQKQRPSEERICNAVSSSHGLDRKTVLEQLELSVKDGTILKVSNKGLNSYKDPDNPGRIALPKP
Strand,E-score
GCCTAGCC,0.218
AGATATCG,-0.122
CGGGTTTC,0.26
CCAGCCCC,-0.0935
ACAAGACA,-0.126
CCCCCATA,-0.0437
AGTCCCAG,-0.0748
GTGGGAGA,-0.226
GTTCCGTA,0.188
ACCAGCTC,-0.161
CCGGGCGC,0.408

# Sample 3
# Target: Interferon regulatory factor 7, full length, phosphomimetic (IRF7, Homo sapiens, UniProt Q92985, residues 1-503, S471D/S472D/S475D/S476D/S477D/S483D/S484D/S487D)
# Technique: protein-binding microarray
# Form: double-stranded DNA, one strand shown
# Sample: in vitro
# Concentration: 2200 nM top
# Notes: 60-bp whole probe
# Added: salmon DNA 0.4 mg/ml
# Relative to: random background probes
# Reading: higher = stronger binding
# Constant ends, left off below: GCCTAGCAC … GTCTTGATTCGCTTGACGCTGCTG
# Residues (chain): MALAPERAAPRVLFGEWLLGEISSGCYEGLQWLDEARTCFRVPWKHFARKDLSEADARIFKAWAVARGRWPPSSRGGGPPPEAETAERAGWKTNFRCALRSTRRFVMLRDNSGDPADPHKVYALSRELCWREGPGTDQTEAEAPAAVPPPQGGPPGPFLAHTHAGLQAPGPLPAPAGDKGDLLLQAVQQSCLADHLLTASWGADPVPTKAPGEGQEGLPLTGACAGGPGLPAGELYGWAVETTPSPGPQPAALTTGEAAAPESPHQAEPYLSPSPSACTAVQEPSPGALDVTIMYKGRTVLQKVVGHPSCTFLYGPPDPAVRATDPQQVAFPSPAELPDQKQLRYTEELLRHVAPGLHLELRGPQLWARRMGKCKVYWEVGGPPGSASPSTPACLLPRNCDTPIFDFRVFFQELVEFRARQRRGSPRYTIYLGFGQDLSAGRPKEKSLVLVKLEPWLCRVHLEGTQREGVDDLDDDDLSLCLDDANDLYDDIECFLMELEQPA
Strand,fitted relative affinity [z-score]
TTAGGTCTCCTCATCCTTTAGTGCTAG,0.924
TTAGAACTGAGTTTCGATCAGTGCTAG,1.72
GACGATCTCAGTCTCGAGAAGTGCTAG,-0.00265
GACGATATCGGGTTTAGAGACGTGCTA,0.159
TTAGGTTTCGGGACAGGGTTAGTGCTA,3.75
GACGATATCGGGACTCGAGACGTGCTA,0.0656
GACGGACTGGATTTCGGGACGTGCTAG,0.448
TCACCAATGCTTCTGGTACTGTGCTAG,0.766
TCAGCTGTCCTTTGCAAACTGTGCTAG,0.782
TCAGTTGTACTTTCTATCACTGTGCTA,2.21
TTAGAACTGAATTTCGATTAGTGCTAG,1.82
GACGGGCTGCTTTTCCTGACGTGCTAG,0.0912
TTAGGTCTCCTTCTCCTTTTGTGCTAG,1.31
TTAGATTTCAGTTCCCATTAGTGCTAG,2.26

# Other studies, line by line
Molecule,target,test,system,conditions,scale,quantity,result
"PhoQ, residues 284 288 289 292 302 303 SNGLAW","PhoP, residues 12 14 15 18 19 FWNTL (Escherichia coli, UniProt P23836)","Sort-seq, item: YFP reporter",E. coli,"PhoQ-PhoP variant library, added: 10 µM Mg2+","relative to: high Mg2+ state, higher = stronger signaling",fold induction,3.86

# For quick reference, copied from above (sample 1):
Molecule,binding enrichment score
LKGRRLVFDN,0.501
KVKRRLDLDIDGLQKE,1.22
RQVRRDLFAF,-0.156
